Measurements collected from several papers.
Protocols differ between the studies behind these lines.
Cell line: MDA-MB-231

| Compound | observed | action | method | time | notes | IC50 |
| --- | --- | --- | --- | --- | --- | --- |
| CCN(CC)C1=[S+][Au-]2([S]1)[c]1ccccc1-c1cccc[c]12 | cell growth or viability | – | MTT | 72 h | – | > 100 µM |
| CC1OC(OC2CC3OC(C)(C)OCC34C3C(O)CC5(C)C(C6=CC(=O)OC6)CCC5(O)C3CCC4(O)C2)C(O)C(O)C1O (stereo not drawn) | cell migration | inhibitor | – | – | – | 30.9 µM |
| Cc1nn(-c2ccccc2)c(O)c1C(c1ccc([N+](=O)[O-])cc1)c1c(C)nn(-c2ccccc2)c1O | cell growth or viability | – | MTT | 48 h | – | 39.6 µM |
| CCCCCCCCCCCCCC(=O)NCC(=O)N[C@@H](C)C(=O)N[C@@H](CC(C)C)C(=O)N[C@](C)(CC)C(=O)N[C@@H](C)C(=O)N[C@H](C(=O)N[C@H](CO)CC(C)C)[C@@H](C)CC | cell growth or viability | – | MTT | – | – | 6 µM |
| COC(=O)[C@@H](NC(=O)[C@@H](NC(=O)[C@@H](NC(=O)[C@@H]1CCCN1C(=O)[C@H](C)NC(=O)OC(C)(C)C)C(C)C)C(C)C)C(C)C | cell growth or viability | – | SRB | – | – | 33 µM |
| Cc1ccc(C(c2c(C)nn(-c3ccccc3)c2O)c2c(C)nn(-c3ccccc3)c2O)cc1 | cell growth or viability | – | MTT | 48 h | – | 28.3 µM |
| COC(=O)C1CN1S(=O)(=O)c1c(C)cc(C)cc1C (stereo not drawn) | cell growth or viability | – | MTT | 48 h | – | 13 µM |
| CC[C@H](C)[C@H](NC(=O)[C@H](CCCNC(=N)N)NC(=O)[C@H](CCCNC(=N)N)NC(=O)[C@H](CCCNC(=N)N)NC(=O)[C@@H](NC(=O)[C@@H](NC(=O)[C@H](C)NC(=O)[C@H](CCCNC(=N)N)NC(=O)[C@H](CCCNC(=N)N)NC(=O)[C@H](CCCNC(=N)N)NC(=O)[C@@H]1CCCN1C(=O)[C@@H](N)CCCNC(=N)N)[C@@H](C)O)[C@@H](C)O)C(=O)N[C@H](C(=O)N[C@H](C(=O)NCC(=O)N[C@H](C(=O)N[C@@H](CCCNC(=N)N)C(=O)N[C@@H](CCCNC(=N)N)C(=O)N[C@@H](CCCNC(=N)N)C(=O)N[C@@H](CCCNC(=N)N)C(N)=O)[C@@H](C)O)[C@@H](C)O)[C@@H](C)O | cell viability | – | CellTiter-Blue | 24 h | serum-free medium | > 100 µM |
| COc1ccc(C(c2c(C)nn(-c3ccccc3)c2O)c2c(C)nn(-c3ccccc3)c2O)cc1 | cell growth or viability | – | MTT | 48 h | – | 9.28 µM |
| [N-]=[N+]=NCCN1C(=O)c2cccc3cccc(c23)C1=O | cell growth or viability | – | MTT | 24 h | – | > 100 µM |
| O=C1[O][Pt]2([OH])([OH])([NH]C3CCCCC3[NH]2)[O]C1=O (stereo not drawn) | cell growth or viability | – | resazurin | 72 h | – | > 100 µM |
| CC(N)C(O)CCCCCCCCCCCCCCC(=O)CCCCCCCC(O)C(C)N (stereo not drawn) | cell growth or viability | – | resazurin | 96 h | – | 93.2 µM |

Excerpt of the above:
| Compound | observed | action | method | time | notes | IC50 |
| --- | --- | --- | --- | --- | --- | --- |
| O=C1[O][Pt]2([OH])([OH])([NH]C3CCCCC3[NH]2)[O]C1=O (stereo not drawn) | cell growth or viability | – | resazurin | 72 h | – | > 100 µM |
